Literature values that unrelated publications cite.
Each line is one published result; not all experiments were run side by side. ± gives the spread as reported.
Tubulin alpha-1B chain/TUBB2B: Tubulin alpha-1B chain/TUBB2B (Bos taurus, UniProt P81947+Q6B856)

For `Cc1ccc(-c2nc3ccc(NC(=O)CCl)cc3[nH]2)cc1`, the inhibition was 33.1% (KDR (Homo sapiens, UniProt P35968); inhibitor; concentration not given).
With `CNCCNC(=O)CN1C(=O)Cc2c([nH]c3ccc(Br)cc23)-c2ccc(Cl)cc21` the inhibition was 40 to 60% (Trypanothione synthetase (Trypanosoma brucei brucei, UniProt Q8IEX1); enzyme activity; 30 µM).
`CCC(NC(=O)CN1C(=O)N/C(=C\c2ccc(C)cc2)C1=O)C(=O)OC` (stereo not drawn) gave an inhibition of 39.3 ± 1.01% (α-glucosidase; enzyme activity; 200 µM).
`CC(=O)Nc1ccc(/N=N/c2ccc(OC[C@@H](O)CNC(C)C)cc2)cc1`: inhibition “inactive” (ADRB2 (Homo sapiens, UniProt P07550); inhibitor; concentration not given).
With `CCOC(=O)C(NC(=O)CN1C(=O)N/C(=C\c2ccc3c(c2)OCO3)C1=O)C(C)C` (stereo not drawn) the inhibition was 28.3 ± 17.3% (α-glucosidase; enzyme activity; 100 µM).
The inhibition of `CCC1=C(O)c2c(oc(-c3cccc4ccccc34)cc2=O)C(CC)(CC)C1=O` is reported as 43% (Tubulin alpha-1B chain/TUBB2B; concentration not given).
For `N#Cc1c(NC(=O)CN2CCSCC2)c(C(=O)c2ccccc2)n2c1CCC2`, the inhibition was 97.6% (EGFR (Homo sapiens, UniProt P00533); 10 µM).
`O=C(O)C1Nc2c(I)cccc2C2C=CCC12` (stereo not drawn) has an inhibition of 74% (glucokinase (Trypanosoma cruzi); enzyme activity, inhibitor; 20 µM).
The inhibition of `CCC1=C(O)c2c(oc(-c3ccc4ccccc4c3)cc2=O)C(CC)(CC)C1=O` is reported as 29% (Tubulin alpha-1B chain/TUBB2B; concentration not given).
`C#CCOc1ccc(/C=C2\SC(=O)N(CC(=O)NCc3ccccc3)C2=O)cc1` gave an inhibition of roughly 8.8% (aldose reductase; 10 µM).
`CC(=N)NCc1cccc(CN)c1` gave an inhibition of 80 to 90% (Nos1 (Rattus norvegicus, UniProt P29476); NMDA-evoked cGMP accumulation; 1 µM).
`CCOC(=O)C(CC)NC(=O)CN1C(=O)S/C(=C\c2ccc(C)cc2)C1=O` (stereo not drawn) — result for inhibition: “inactive” (α-glucosidase; enzyme activity; 100 to 200 µM).

Excerpt of the above:
The inhibition of `CCC1=C(O)c2c(oc(-c3cccc4ccccc34)cc2=O)C(CC)(CC)C1=O` is reported as 43% (Tubulin alpha-1B chain/TUBB2B; concentration not given).
For `N#Cc1c(NC(=O)CN2CCSCC2)c(C(=O)c2ccccc2)n2c1CCC2`, the inhibition was 97.6% (EGFR (Homo sapiens, UniProt P00533); 10 µM).
